Experimental data from different studies.
Numbered parts are unrelated; each lists some results of a single study.
UniProt P53355, sequence (whole entry, looked up): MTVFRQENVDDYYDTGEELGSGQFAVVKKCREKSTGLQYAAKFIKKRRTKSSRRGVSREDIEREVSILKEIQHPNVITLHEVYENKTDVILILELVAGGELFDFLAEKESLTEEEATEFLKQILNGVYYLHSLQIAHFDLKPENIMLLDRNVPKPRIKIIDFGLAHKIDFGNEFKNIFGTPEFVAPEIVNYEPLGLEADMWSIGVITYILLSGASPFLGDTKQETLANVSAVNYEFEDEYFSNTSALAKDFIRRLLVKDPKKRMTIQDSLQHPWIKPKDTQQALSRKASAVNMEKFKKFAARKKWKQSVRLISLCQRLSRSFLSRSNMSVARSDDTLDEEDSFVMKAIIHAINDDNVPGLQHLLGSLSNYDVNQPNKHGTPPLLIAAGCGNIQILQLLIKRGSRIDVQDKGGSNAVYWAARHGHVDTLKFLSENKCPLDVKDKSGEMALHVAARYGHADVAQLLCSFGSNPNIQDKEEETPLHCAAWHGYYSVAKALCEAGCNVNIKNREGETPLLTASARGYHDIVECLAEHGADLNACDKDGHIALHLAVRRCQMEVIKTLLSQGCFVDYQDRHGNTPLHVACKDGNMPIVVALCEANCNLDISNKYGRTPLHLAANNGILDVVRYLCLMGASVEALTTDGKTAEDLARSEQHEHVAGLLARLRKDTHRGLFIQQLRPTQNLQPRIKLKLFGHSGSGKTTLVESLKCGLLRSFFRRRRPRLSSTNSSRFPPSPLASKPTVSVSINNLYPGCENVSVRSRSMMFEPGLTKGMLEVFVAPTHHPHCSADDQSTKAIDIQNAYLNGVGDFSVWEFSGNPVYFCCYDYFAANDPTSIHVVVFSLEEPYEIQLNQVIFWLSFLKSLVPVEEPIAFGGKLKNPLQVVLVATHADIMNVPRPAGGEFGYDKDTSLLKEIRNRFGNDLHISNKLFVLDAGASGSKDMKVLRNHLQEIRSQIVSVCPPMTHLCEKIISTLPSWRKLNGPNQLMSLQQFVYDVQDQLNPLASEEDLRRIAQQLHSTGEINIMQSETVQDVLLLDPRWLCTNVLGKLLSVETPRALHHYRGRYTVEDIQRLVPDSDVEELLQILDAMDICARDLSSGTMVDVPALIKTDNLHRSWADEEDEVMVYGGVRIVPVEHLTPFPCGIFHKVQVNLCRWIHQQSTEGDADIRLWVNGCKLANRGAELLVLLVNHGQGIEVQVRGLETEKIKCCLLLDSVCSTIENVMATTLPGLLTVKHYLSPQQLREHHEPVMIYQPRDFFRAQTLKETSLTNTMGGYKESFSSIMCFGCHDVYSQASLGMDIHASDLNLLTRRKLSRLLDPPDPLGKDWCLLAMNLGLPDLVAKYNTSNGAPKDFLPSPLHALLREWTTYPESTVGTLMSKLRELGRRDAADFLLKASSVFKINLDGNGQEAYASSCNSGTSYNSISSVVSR

Sample 1 — method: RNA Bind-n-Seq; form: RNA; sample: in vitro; concentration: 1 µM; setting: whole 134-nt RNA, ends assumed; with: 150 mM KCl; baseline: input library; direction: higher = stronger binding
Target: Ras GTPase-activating protein-binding protein 1, RRM domain (G3BP1, Homo sapiens, UniProt Q13283)
UniProt Q13283, sequence (whole entry, looked up): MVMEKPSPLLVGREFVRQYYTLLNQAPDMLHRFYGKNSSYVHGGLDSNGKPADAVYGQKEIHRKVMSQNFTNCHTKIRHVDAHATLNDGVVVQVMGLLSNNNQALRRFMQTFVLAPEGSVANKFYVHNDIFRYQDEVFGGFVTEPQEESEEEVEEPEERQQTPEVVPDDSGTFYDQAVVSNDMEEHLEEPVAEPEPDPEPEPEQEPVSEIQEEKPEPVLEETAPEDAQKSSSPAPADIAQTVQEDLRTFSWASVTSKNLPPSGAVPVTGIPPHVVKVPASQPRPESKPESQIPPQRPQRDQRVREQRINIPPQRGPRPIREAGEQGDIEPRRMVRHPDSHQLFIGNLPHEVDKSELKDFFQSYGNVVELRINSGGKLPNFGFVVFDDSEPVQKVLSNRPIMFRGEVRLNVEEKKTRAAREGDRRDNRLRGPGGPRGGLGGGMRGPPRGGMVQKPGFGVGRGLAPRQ
Shared flanks, not repeated: GGGAGUUCUACAGUCCGACGAUC … UGGAAUUCUCGGGUGUCAAGG
Strand | log2 enrichment
CUGUGCUACACAUCGUAUGUACCGAAUCGGGGUUUUUUUGGUUUUUUUGGGGUUUUUUUGGGAAAGUAUUAUGUUACGCCGUUCGGAUCU | -0.211
CCUGUGCUACACAUCGUAUGUACCGAAUCGGUUUUUUUGGGGUUUUUUUGGUUUUUUUGGGAAAGUAUUAUGUUACGCCGUUCGGAUCUG | -0.286
UGGCCCUGGUGGCAUGCGGGGAGGAAGAGGUGGCCUCAUGCAUCGUGGUGGUCCCGGUGGAAUGUUCAGAGGUGGCCGUGGUGGAGACAG | 0.282
UCCUCAAGUCCUGUGCUACACAUCGUAUGUACCGAAUCGGGUGGGUGGUGGGAAAGUAUUAUGUUACGCCGUUCGGAUCUGCACUUCCAG | 0.263
ACCAUGCAGGUGGGCAUCUUUAAAAAGUGGGGCAAGGGGGGGAUAGGGAGGGGGGUAACACUUUGGGAACAGGUGGUCCCAGGUCGUUUC | -0.398
AGUCCUGUGCUACACAUCGUAUGUACCGAAUCGGGAAAAAGGGUUUUUGGGAAAGGGAAAGUAUUAUGUUACGCCGUUCGGAUCUGCACU | 0.274
UGCCAGGCCCACCCCCAGGUGUUCCCGCGCCUGGGGGCCCACCCCUGUCCACCGGACCUAUAGUGGACCUGCUCCAGUACAGCCAGAAGG | -0.591
ACCAUGCAGGUGGGCAUCUUUGGGAAGUGGGGCUAGGGGGGGAUAGGGAGGGGGGUAACACUUUGGGAACAGGUGGUCCCAGGUCGUUUC | -0.449

Sample 2 — method: universal PBM; form: double-stranded DNA, one strand shown; sample: in vitro; concentration: not given; direction: higher = stronger binding
Target: Sal-like protein 4, full length isoform B (SALL4, Homo sapiens, UniProt Q9UJQ4-2, residues 1-616)
Setting: 8-mer, flanks averaged, mean of replicates
Strand | E-score
TGTTTCAA | 0.265
GCTGGTCC | -0.223
GAATCTCA | -0.0901
CATGGAAC | -0.0676
ACAAGAAG | -0.0139
CGTATAGC | 0.013
CATCGCGG | -0.193
AAGACCGA | -0.068

Sample 3 — method: aptamer microarray, sandwich; form: DNA with 2'F-ANA; sample: in vitro; concentration: 200 nM; with: Cy3 exosite-II aptamer, 400 nM; direction: higher = stronger binding; strand: GGTTGGTGTGGTTGG
Target: Prothrombin, mature alpha-thrombin (F2, Homo sapiens, UniProt P00734)
Setting: whole 15-mer aptamer, many near background
Modification | mean fluorescence intensity [a.u.]
2'F-ANA at 1 2 4 7 9 11 12 15 | 176
2'F-ANA at 1 5 9 10 12 | 46.4
2'F-ANA at 3 4 5 6 9 10 11 12 14 | 48.7
2'F-ANA at 1 9 10 11 13 15 | 54.2
2'F-ANA at 1 3 7 8 9 10 | 89.3
2'F-ANA at 2 4 5 7 8 12 13 | 142
2'F-ANA at 2 4 5 7 8 12 14 | 52.1
2'F-ANA at 2 3 4 5 6 7 | 92.2

Other studies, line by line
SMILES | target | test | setting | scale | quantity | result
CCCCc1c(-c2ccc(O)cc2)[nH]c2nccnc12 | Death-associated protein kinase 1 (DAPK1, Homo sapiens, UniProt P53355) | enzyme activity, inhibitor | 0.5 µM | baseline: control | remaining activity | 85.3%

Some of these lines once more (sample 1):
Strand | log2 enrichment
AGUCCUGUGCUACACAUCGUAUGUACCGAAUCGGGAAAAAGGGUUUUUGGGAAAGGGAAAGUAUUAUGUUACGCCGUUCGGAUCUGCACU | 0.274
ACCAUGCAGGUGGGCAUCUUUGGGAAGUGGGGCUAGGGGGGGAUAGGGAGGGGGGUAACACUUUGGGAACAGGUGGUCCCAGGUCGUUUC | -0.449
